Published values collected from several papers.
Protocols differ between the studies behind these lines. Several values in a cell are separate wells, animals, samples, runs or records. Numbers after ± are the reported error.
PTPN6: Tyrosine-protein phosphatase non-receptor type 6 (PTPN6, Homo sapiens, UniProt P29350)
TACR1: Substance-P receptor (TACR1, Homo sapiens, UniProt P25103)
SRC SH3-SH2-kinase domain: Proto-oncogene tyrosine-protein kinase Src, SH3-SH2-kinase domain (SRC, Gallus gallus, UniProt P00523)
Genome polyprotein NS3 helicase domain: Genome polyprotein, NS3 helicase domain (Hepatitis C virus genotype 1b, UniProt Q9WMX2)
Palmitoyl-protein thioesterase 1: Palmitoyl-protein thioesterase 1 (Homo sapiens, UniProt P50897)

| Compound | target | assay | system | setting | IC50 |
| --- | --- | --- | --- | --- | --- |
| CCn1c(=S)[nH]c2cc3ccccc3cc2c1=O | Genome polyprotein, protease (Hepatitis C virus genotype 1b, UniProt O92972) | enzyme activity, inhibitor, FRET |  |  | 6.41 µM |
| COc1cccc(Cc2cc(CCC(=O)NCCNc3cccc4c(S(=O)(=O)O)cccc34)nn(CC(=O)Nc3ccc(Br)cc3)c2=O)c1 | FPR2 (Homo sapiens, UniProt P25090) | calcium mobilization, antagonist | HL-60 transfected with target | together with: WKYMVM 5 nM | 1.3 ± 0.6 µM |
| CCCCCCCCCOc1c(CCCC(=O)O)cc(-c2ccc(C(=O)O)cc2)cc1CCCC(=O)O | PTPN6 | enzyme activity, inhibitor, fluorescence |  |  | ~125 µM |
| Cc1ccccc1-c1cc(N2CCOCC2)ccc1N(C)C(=O)C(C)(C)c1cc(C(F)(F)F)cc(C(F)(F)F)c1 | TACR1 | nuclear ERK activity, antagonist, FRET biosensor | HEK293T | 30 to 90 min preincubation, together with: substance P 10 nM | 0.513 µM |
| COc1ccccc1N1CCN(c2nc3c(c(=O)[nH]2)CCCC3)CC1 | TNKS2 (Homo sapiens, UniProt Q9H2K2) | enzyme activity, inhibitor, ELISA |  |  | 0.0423 µM |
| NC(=O)[C@@H]1CCCNC(=O)[C@H](Cc2ccc([N+](=O)[O-])cc2)NC(=O)[C@H](Cc2ccccc2)NC(=O)[C@H](CC2CC2)NC(=O)/C=C/C(=O)N1 | SRC SH3-SH2-kinase domain | enzyme activity, inhibitor, Z'-LYTE FRET |  | Src residues 83-533, together with: 50 µM ATP | 0.08 ± 0.008 µM |
| Cc1ccc(-c2nnn(CC(=O)C(C)(C)C)n2)cc1Cl | Trypanothione synthetase (Trypanosoma brucei, UniProt Q586P2) | enzyme activity, inhibitor |  |  | 7.2 µM |
| Cc1ccc2nc(-c3ccc4nc(-c5ccc(N)cc5)sc4c3)sc2c1S(=O)(=O)O | Genome polyprotein NS3 helicase domain | helicase activity, inhibitor, MBHA |  |  | 49 ± 45 µM |
| CC(C)C[C@H](NC(=O)[C@H](Cc1c[nH]cn1)NC(=O)[C@H](CC(=O)O)NC(=O)[C@H](CCCNC(=N)N)NC(=O)[C@H](CO)NC(=O)[C@@H]1CCCN1C(=O)[C@H](CCCNC(=N)N)NC(=O)[C@H](CCC(=O)O)NC(=O)[C@H](C)NC(=O)[C@@H](N)Cc1ccc(O)cc1)C(=O)N[C@@H](Cc1ccc(O)cc1)C(=O)N[C@@H](CC(C)C)C(=O)N1CCC[C@H]1C(=O)N[C@@H](CC(C)C)C(=O)N[C@@H](CCC(=O)O)C(=O)N1CCC[C@H]1C(=O)O | Mitogen-activated protein kinase 14 (Rattus norvegicus, UniProt P70618, E160S/E163T/N159K) | kinase activity, inhibitor, competitive kinase |  |  | > 100 µM |
| CCC(NC(=O)C(CC(C)C)NC(=O)CCc1ccccc1)C(=O)C(=O)NCc1cccc(OC)c1 (stereo not shown) | Calpain-2 catalytic subunit (Capn2, Mus musculus, UniProt O08529) | enzyme activity, inhibitor | mouse pons-cerebellum membranes | together with: calcium 2 mM | 0.085 µM |
| COc1ccc(N2CCN(C(=O)ON3C(=O)C4CN(CC5CCN(Cc6ccccc6)CC5)CCN4C3=O)CC2)cc1 (stereo not shown) | Palmitoyl-protein thioesterase 1 | enzyme activity, inhibitor |  |  | 1.26 µM |
| OC[C@@H]1NC[C@H](O)[C@@H]1O | Mannosyl-oligosaccharide alpha-1,2-mannosidase 1B (mns1B, Aspergillus phoenicis, UniProt Q12563) | enzyme activity, inhibitor, mass spectrometry |  |  | 1000 µM |
| COc1c(C(=O)/C=C/c2ccc(F)cc2)c(O)c(OC)c2occc12 | Cytochrome P450 1B1 (CYP1B1, Homo sapiens, UniProt Q16678) | enzyme activity, inhibitor |  | 15 min, pH 7.4 | > 10 µM |
| CCCCCCCCCCCCCCCC(=O)NC[C@H](NC(=O)CNc1ccc([N+](=O)[O-])c2nonc12)C(=O)N[C@H](C(=O)N[C@@H](CCCCN)C(=O)N[C@H](C(=O)N[C@@H](CCCCN)C(=O)N[C@@H](CCCCN)C(=O)O)[C@@H](C)CC)C(C)C | Palmitoyl-protein thioesterase 1 | enzyme activity, inhibitor | lymphoblast or fibroblast lysate | pH 4.7, together with: MUGS-palmitate | 10 µM |
| CC(C)(C)n1nc(-c2ccc(Cl)cc2)c2c(N)ncnc21 | Proto-oncogene tyrosine-protein kinase Src, autophosphorylated (SRC, Gallus gallus, UniProt P00523, Y527F) | photo-crosslinking probe binding, competition with HT-1 | mammalian cell lysate | activated kinase | 0.11 ± 0.01 µM |
| O=S(=O)(Nc1cscn1)c1c(F)cc(NCc2c(F)ccc(F)c2CN2CCC2)cc1F | SCN8A (Homo sapiens, UniProt Q9UQD0) | sodium current, inhibitor, automated patch clamp |  | inactivated state, Vh -45 mV | 0.0103 µM and 0.01 µM |
| CC(=O)Oc1ccc(OC(C)=O)c2c1CC1=C(C2)C(C)(C)CCC1 | DNA topoisomerase IB (Leishmania donovani, UniProt A0A3Q8IHS4+Q8WQM6) | DNA relaxation activity, inhibitor |  | together with: supercoiled plasmid DNA | > 100 µM |
| CC[C@H](C)[C@H](NC(=O)[C@H](CC(C)C)NC(=O)c1ccc(N)nc1)C(=O)NCC(=O)N[C@@H](CCCN=C(N)N)C(=O)N[C@@H](CC(C)C)C(N)=O | F2RL1 (Homo sapiens, UniProt P55085) | ligand displacement |  |  | 18.5 µM |
| Oc1c(C(Nc2nc3ccccc3s2)c2cccc(OCc3ccccc3)c2)ccc2cccnc12 (stereo not shown) | Genome polyprotein, NS2B-NS3 protease (Dengue virus type 2, UniProt P14340) | enzyme activity, inhibitor |  | 0.1% CHAPS, together with: Bz-Nle-Lys-Arg-Arg-AMC substrate | ≤ 1 µM and 0.91 µM |
| COc1ccc(/C=C/c2cc(O)cc(O)c2)cc1O | XDH (Bos taurus, UniProt P80457) | uric acid formation, inhibitor |  | pH 10.0, 25 °C, together with: 200 µM xanthine | 7.9 ± 0.5 µM |
| COCCCN1CCc2c(Cc3ccc(Cl)cc3)[nH]c3c(OC(F)F)ccc(c23)C1=O | PDE8A (Homo sapiens, UniProt O60658) | enzyme activity, inhibitor |  |  | > 10 µM |
| NC(=O)[C@@H]1CCNC(=O)[C@H](CCCNC(=O)c2cnccn2)NC(=O)[C@H](CC2CCCCC2)NC(=O)[C@H](C/C=C/c2ccccc2)NC(=O)/C=C\C(=O)N1 | HCK (Homo sapiens, UniProt P08631) | enzyme activity, inhibitor, absorbance |  |  | > 100 µM |

| Compound | target | assay | system | setting | IC50 |
| --- | --- | --- | --- | --- | --- |
| C/C=C/C(=O)Nc1ccc2nc(NCCCCCN(C)C)nc(NCCCCCCN(C)C)c2c1 | CHD1, chromodomains (Homo sapiens, UniProt O14646) |  |  |  | 11 ± 3.1 µM |
| O=S(=O)(NCc1nc(-c2ccccc2)no1)c1cc(Cl)ccc1Cl | Trypanothione synthetase (Trypanosoma brucei, UniProt Q586P2) | enzyme activity, inhibitor |  |  | 16 µM |
| CCCC1=C(CO)C(=O)CC(O)C1 (stereo not shown) | PTPN6 | enzyme activity, inhibitor, absorbance |  |  | > 72.4 µM |
| CCC(=O)N1CCN(c2ccc(N(C)C(=O)C(C)(C)c3cc(C(F)(F)F)cc(C(F)(F)F)c3)c(-c3ccccc3C)c2)CC1 | TACR1 | IP1 accumulation, antagonist, HTRF |  | 90 min preincubation, together with: substance P 10 nM | 0.145 µM |
| CC1OC(Oc2c(-c3ccc(O)cc3)oc3cc(O)cc(O)c3c2=O)C(OC(=O)C=Cc2ccc(O)cc2)C(O)C1OC(=O)C=Cc1ccc(O)cc1 (stereo not shown) | CXCR6 (Homo sapiens, UniProt O00574) | calcium flux, antagonist | 293FT GCaMP6 transfected |  | > 100 µM |
| COC(=O)N1CCC(CN2CCC(CNC(=O)c3cccc4[nH]c(C(C)C)nc34)CC2)CC1 | ABCB11 (Homo sapiens, UniProt O95342) | transporter uptake, inhibitor |  |  | > 10 µM |
| [2H]c1c(NS(C)(=O)=O)c([2H])c2c(C(=O)c3ccc(OCCCN(CCCC)CCCC)cc3)c(CCCC)oc2c1[2H] | NADH dehydrogenase complex I (Rattus norvegicus, UniProt A6K8N6+P03889+Q641Y2) | oxygen consumption rate | isolated rat heart mitochondria | together with: NADH | 80.4 µM |
| CCOC(=O)N1CCC(Oc2nc3c(c(=O)n(C)c(=O)n3C)n2CCC(C)C)CC1 | HPGD (Homo sapiens, UniProt P15428) |  |  |  | > 57 µM |
| COC(=O)N1c2ccc3c(nc(Cc4ccccc4)n3[C@@H]3CCC[C@@H](C(=O)O)C3)c2CC[C@@H]1C | BRD9 (Homo sapiens, UniProt Q9H8M2) | binding, inhibitor, TR-FRET |  |  | 26.7 µM |
| NC(=O)[C@@H]1CCCNC(=O)[C@H](Cc2ccc([N+](=O)[O-])cc2)NC(=O)[C@H](Cc2ccccc2)NC(=O)[C@H](Cc2ccccc2)NC(=O)/C=C/C(=O)N1 | SRC SH3-SH2-kinase domain | enzyme activity, inhibitor, Z'-LYTE FRET |  | Src residues 83-533, together with: 50 µM ATP | 0.22 ± 0.005 µM |
| CC(C)n1nc(-c2ccc3cc(OCc4ccccc4)ccc3c2)c2c(N)ncnc21 | Tyrosine-protein kinase HCK, SH2 (HCK, Homo sapiens, UniProt P08631, Q523E/Q524E/Q525I) | enzyme activity, inhibitor |  |  | < 0.02 µM |
| COc1ccc2nc3cc(Cl)ccc3c(NCCCCc3c(N)nc(N)nc3N)c2c1 | Muscleblind-like protein 1, with (CCUG)6 RNA (Homo sapiens, UniProt Q9NR56) | MBNL1-RNA binding, gel mobility shift |  | no tRNA, together with: 0.1 nM (CCUG)6 RNA, 350 nM MBNL1 | 59 ± 5 µM |
| CCN1CCC(N(C)C(=O)Cc2ccc(O)cc2Cl)C(C)C1 (stereo not shown) | RAD52 (Homo sapiens, UniProt P43351) | DNA binding, inhibitor, FRET |  | 25 °C, together with: Cy3-dT30-Cy5 1 nM | 249 ± 9.5 µM |
| Cn1c(=O)n(CCCO)c(=O)c2c1nc(Oc1cccc(OC(F)(F)F)c1)n2Cc1ccc(C2(C(F)(F)F)N=N2)cc1 | TRPC4/TRPC1 (TRPC1/TRPC4, Homo sapiens, UniProt P48995+Q9UBN4) | calcium influx, inhibitor, Fura-2 | HEK T-REx expressing TRPC1/TRPC4 | together with: englerin A 30 nM | 0.0013 µM |
| N#Cc1c(-c2ccc(Cl)cc2)cc(-c2cccs2)nc1SCc1ccc(C(=O)O)cc1 | KAT2A (Homo sapiens, UniProt Q92830) | enzyme activity, inhibitor, radiometric |  |  | 3.1 µM |
| Cc1ccc2nc(-c3ccc(N=NNc4ccc(-c5nc6ccc(C)c(S(=O)(=O)O)c6s5)cc4)cc3)sc2c1S(=O)(=O)O | Genome polyprotein NS3 helicase domain | helicase activity, molecular beacon helicase |  | together with: DNA substrate | 12 ± 3.6 µM |
| CNC(=O)N(C)c1ccc(C(=O)Nc2ccc(F)cc2C(=O)Nc2ccc(Cl)cn2)cc1 | F10 (Homo sapiens, UniProt P00742) | enzyme activity, inhibitor, absorbance |  |  | 0.0005 µM |
| Clc1ccc(C(c2ccc(Cl)cc2)n2cc[n+](CC(OCc3ccc(Cl)cc3Cl)c3ccc(Cl)cc3Cl)c2)cc1 (stereo not shown) | Trypanothione synthetase (Trypanosoma brucei brucei, UniProt Q586P2) | enzyme activity, BIOMOL Green phosphate release |  | 1 h preincubation | 10 µM |
| C[C@@H](O)[C@H](NC(=O)CP(=O)(O)OC[C@H]1O[C@@H](n2cnc3c(N)ncnc32)[C@H](O)[C@@H]1O)C(=O)O | tsaD, with TsaB and TsaE (Escherichia coli, UniProt P05852) | inhibitor |  | together with: TC-AMP 10 µM, ATP 1 mM | 7.5 µM |
| CC(C)(C)C(=O)Cn1nnc(-c2ccc(C(F)(F)F)cc2)n1 | Trypanothione synthetase (Trypanosoma brucei, UniProt Q586P2) | enzyme activity, inhibitor |  |  | > 100 µM |
| Cc1nc2ccc(Br)cc2c(=O)n1N | PLA2G5 (Homo sapiens, UniProt P39877) | enzyme activity, inhibitor, colorimetric |  |  | 16.1 ± 0.85 µM |
